Assay results pooled from the literature.
Numbered parts are unrelated; each lists some results of a single study. “And” joins repeats or separate records; there may be more than shown. Positions count from the first letter of the parent shown.

Set 1
Target: UDP-N-acetylglucosamine--peptide N-acetylglucosaminyltransferase 110 kDa subunit (OGT, Homo sapiens, UniProt O15294)
Chain of UniProt O15294 (whole entry, looked up): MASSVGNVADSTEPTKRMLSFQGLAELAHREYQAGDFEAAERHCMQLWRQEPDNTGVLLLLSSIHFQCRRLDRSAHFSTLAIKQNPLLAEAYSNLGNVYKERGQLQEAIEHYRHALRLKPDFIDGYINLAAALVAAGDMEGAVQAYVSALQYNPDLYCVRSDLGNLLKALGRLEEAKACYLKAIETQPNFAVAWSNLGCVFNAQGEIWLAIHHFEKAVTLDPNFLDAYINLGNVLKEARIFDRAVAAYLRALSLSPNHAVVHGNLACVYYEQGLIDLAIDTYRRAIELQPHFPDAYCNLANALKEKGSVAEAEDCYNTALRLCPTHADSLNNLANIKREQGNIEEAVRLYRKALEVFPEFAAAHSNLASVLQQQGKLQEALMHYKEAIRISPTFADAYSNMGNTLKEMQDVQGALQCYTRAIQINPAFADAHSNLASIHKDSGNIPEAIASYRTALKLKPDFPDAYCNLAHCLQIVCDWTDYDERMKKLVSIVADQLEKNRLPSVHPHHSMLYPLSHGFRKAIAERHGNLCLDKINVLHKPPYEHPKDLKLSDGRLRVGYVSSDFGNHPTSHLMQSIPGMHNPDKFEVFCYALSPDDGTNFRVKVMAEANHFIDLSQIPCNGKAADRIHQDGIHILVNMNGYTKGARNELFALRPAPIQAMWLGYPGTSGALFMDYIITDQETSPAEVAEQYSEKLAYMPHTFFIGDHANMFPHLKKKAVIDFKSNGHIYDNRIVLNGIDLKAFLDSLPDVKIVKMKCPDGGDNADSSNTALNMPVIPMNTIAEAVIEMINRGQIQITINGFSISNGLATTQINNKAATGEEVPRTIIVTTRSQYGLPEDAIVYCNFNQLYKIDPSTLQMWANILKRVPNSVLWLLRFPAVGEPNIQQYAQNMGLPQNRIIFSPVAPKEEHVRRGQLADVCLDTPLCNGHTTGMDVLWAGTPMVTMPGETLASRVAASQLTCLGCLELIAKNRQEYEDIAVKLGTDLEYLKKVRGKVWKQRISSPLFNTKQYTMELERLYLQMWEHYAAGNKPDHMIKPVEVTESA
Effect on: binding
Method: phage display NGS
Molecule type: peptide
Tested at: concentration not given
Notes: normalized abundance
Baseline: input library
Sequence | enrichment fold change
HTRWHSNRTHEQHHV | 9.69
YPPVYVIQIPMAQQH | 5.97
GPNHIHHGHSEPHHI | 12.2
HGTHTAGAAPHILHH | 8.26
HFADSRSWHHYSTGH | 3.94
HIDKHFKHEQYQHDH | 8.89
WPSVMHHHHVQQTAA | 18.6
ANYLPMYQMPVTVY | 3.23

Set 2
Target: Sodium-dependent noradrenaline transporter (SLC6A2, Homo sapiens, UniProt P23975)
Chain of UniProt P23975 (whole entry, looked up): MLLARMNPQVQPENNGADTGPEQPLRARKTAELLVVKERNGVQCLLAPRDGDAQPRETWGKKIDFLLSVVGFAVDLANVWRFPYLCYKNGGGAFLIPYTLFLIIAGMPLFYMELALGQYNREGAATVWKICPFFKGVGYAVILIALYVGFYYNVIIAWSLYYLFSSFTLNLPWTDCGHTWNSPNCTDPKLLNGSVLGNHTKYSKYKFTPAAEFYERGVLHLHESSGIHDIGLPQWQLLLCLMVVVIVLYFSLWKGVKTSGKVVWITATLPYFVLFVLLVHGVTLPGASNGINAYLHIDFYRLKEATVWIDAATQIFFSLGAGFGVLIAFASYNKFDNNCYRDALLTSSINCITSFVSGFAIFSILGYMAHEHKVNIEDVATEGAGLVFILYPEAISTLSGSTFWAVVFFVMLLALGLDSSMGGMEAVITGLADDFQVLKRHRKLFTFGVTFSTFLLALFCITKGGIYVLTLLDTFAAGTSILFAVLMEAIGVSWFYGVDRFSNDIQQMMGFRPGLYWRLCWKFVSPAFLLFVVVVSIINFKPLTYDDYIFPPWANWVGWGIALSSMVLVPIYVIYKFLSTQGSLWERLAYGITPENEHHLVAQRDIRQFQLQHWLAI
Effect on: cell-free assay
Tested at: 10 µM
Structure (SMILES) | inhibition [%]
Cc1cc(Nc2nccc(C)n2)cc(-c2cnc([C@@]3(O)CC[C@H](C(=O)O)C(C)(C)C3)s2)c1 | -24.3
NS(=O)(=O)c1cc(NC(=O)Cc2ccccc2)ccc1Oc1cccc(Cl)c1 | 0.53
CC(C)(C)OC(=O)N1CCCC1CNC1CCC(c2cc(F)ccc2F)(S(=O)(=O)c2ccc(Cl)cc2)CC1 (stereo not drawn) | 50.7
C[C@H](NC(=O)Nc1cc2[nH]ncc2c(CO)n1)c1ccccn1 | 25.4
CN1CCN(c2ccnc(NCCc3ccccc3)n2)CC1 | 93.8
O=C(Nc1ccc(Oc2ccc(F)cc2)cc1)N1CCc2ncccc2[C@H]1c1ccc(F)cc1 | 32.5
C[C@@H](NC(=O)Nc1cc2[nH]ncc2c(CO)n1)c1ccccc1 | -9.99
N#CC1(c2ccccn2)CCN(Cc2cc(C(=O)O)c(=O)n3ccccc23)CC1 | 24.7
O=S(=O)(NC1CCC(c2cc(F)ccc2F)(S(=O)(=O)c2ccc(Cl)cc2)CC1)C(F)(F)F (stereo not drawn) | 7.49
CN1CCN(C(=O)C(C)(C)c2ccc(C(=O)Nc3cn4cc(-c5cc(C(C)(C)C)cc(C(C)(C)C)c5)ccc4n3)cc2)CC1 | 40.8
CS(=O)(=O)c1cc(C2(NC(=O)c3cncc4c3cnn4-c3ccc(F)cc3)CC2)ccn1 | -25
O=C(N[C@H]1CCCCC/C=C\C2C[C@@]2(C(=O)O)NC(=O)[C@@H]2C[C@@H](Oc3ccncc3)CN2C1=O)OC1CCCC1 (stereo partly drawn) | -6.94
C[C@H](c1ccc(F)cc1)N(Cc1cccc(C(=O)O)c1)C(=O)c1cnc2ccccc2c1 | 2.04

Set 3
Target: CCND2, cyclin fold, Cln2 fusion (human)
Method: yeast growth competition, sequencing
Sample: yeast
Notes: weak parent motif
Baseline: not given
Reading: higher = stronger binding
Starting sequence: viral docking peptide; KGVKRKLFAEDSS; partner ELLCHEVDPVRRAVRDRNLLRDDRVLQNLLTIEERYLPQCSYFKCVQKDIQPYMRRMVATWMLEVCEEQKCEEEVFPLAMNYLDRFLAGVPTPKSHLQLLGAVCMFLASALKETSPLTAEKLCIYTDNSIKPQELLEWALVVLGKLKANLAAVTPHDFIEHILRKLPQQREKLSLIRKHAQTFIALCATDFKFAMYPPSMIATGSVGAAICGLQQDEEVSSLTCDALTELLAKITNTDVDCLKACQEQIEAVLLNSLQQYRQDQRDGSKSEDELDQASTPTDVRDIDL
Variant | normalised enrichment score
F8S | -0.151
E10K | -0.592
D11E | 0.503
E10I | -0.0403
K6G | 0.351
R5N | -0.118
V3K | 0.23
R5W | -0.498

Other studies, line by line
SMILES | cell line | method | tested at | endpoint | value
CC(C)S(=O)(=O)c1cc2c(Nc3ccc4sc(C5CCCC5)nc4c3)ccnc2cc1OCCO | L929 RIPK3-/- reexpressing RIPK3 K51A | CCK-8 | 3.125 µM | survival | 93.3% and 89.9% and 86.5% and 99.1%

Excerpt of the above (set 2):
Structure (SMILES) | inhibition [%]
C[C@H](NC(=O)Nc1cc2[nH]ncc2c(CO)n1)c1ccccn1 | 25.4
CN1CCN(c2ccnc(NCCc3ccccc3)n2)CC1 | 93.8
O=C(Nc1ccc(Oc2ccc(F)cc2)cc1)N1CCc2ncccc2[C@H]1c1ccc(F)cc1 | 32.5
C[C@@H](NC(=O)Nc1cc2[nH]ncc2c(CO)n1)c1ccccc1 | -9.99
